{"data": "Experimental data pooled from the literature", "lecA": "PA-I galactophilic lectin (lecA, Pseudomonas aeruginosa, UniProt Q05097)", "RPRD1B CID domain": "Regulation of nuclear pre-mRNA domain-containing protein 1B, CID domain (RPRD1B, Homo sapiens, UniProt Q9NQG5)", "note": "Protocols differ between the studies behind these lines. ± gives the spread as reported.", "UniProt Q05097, sequence (whole entry, looked up)": "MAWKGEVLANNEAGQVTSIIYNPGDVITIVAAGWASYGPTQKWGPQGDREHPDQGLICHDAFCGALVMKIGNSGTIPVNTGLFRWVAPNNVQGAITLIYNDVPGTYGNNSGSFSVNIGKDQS", "UniProt Q9NQG5, sequence (whole entry, looked up)": "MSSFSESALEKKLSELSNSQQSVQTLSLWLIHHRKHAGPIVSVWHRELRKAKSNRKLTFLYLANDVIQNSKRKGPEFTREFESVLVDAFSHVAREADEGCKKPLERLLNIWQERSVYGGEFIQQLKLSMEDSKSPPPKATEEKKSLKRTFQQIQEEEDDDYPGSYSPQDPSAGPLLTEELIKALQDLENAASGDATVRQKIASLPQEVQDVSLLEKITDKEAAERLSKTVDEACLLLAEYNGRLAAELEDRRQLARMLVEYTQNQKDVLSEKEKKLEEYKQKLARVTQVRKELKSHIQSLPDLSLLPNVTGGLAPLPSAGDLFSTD", "UniProt P63104, sequence (whole entry, looked up)": "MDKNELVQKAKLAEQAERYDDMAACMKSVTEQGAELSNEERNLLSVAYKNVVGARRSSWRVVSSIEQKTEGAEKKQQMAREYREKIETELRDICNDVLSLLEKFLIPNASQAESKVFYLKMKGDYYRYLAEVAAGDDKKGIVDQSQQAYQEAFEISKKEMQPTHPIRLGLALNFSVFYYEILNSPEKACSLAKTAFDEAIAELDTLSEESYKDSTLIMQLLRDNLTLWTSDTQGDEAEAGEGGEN", "UniProt Q767F1, sequence (whole entry, unmodified, looked up)": "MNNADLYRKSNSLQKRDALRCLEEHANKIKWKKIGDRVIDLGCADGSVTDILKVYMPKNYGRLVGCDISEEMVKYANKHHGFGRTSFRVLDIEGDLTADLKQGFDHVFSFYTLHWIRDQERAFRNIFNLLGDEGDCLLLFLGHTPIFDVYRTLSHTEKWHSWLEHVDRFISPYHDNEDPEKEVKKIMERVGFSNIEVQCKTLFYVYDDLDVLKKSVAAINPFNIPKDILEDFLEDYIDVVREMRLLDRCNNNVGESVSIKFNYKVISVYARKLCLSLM", "UniProt Q9ULV8, sequence (whole entry, looked up)": "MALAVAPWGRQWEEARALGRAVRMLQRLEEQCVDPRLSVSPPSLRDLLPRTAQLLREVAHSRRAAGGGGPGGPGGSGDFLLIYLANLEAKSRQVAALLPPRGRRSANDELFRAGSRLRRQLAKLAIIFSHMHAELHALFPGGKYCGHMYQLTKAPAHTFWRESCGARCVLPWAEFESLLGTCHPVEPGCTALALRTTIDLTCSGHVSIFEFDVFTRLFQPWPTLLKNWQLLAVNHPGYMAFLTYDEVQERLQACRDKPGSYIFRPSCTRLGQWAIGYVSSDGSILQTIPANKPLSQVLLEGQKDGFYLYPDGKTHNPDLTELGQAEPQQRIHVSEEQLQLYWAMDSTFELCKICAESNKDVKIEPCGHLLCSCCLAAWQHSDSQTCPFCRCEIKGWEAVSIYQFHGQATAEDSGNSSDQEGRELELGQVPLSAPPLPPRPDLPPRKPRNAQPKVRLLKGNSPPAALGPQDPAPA", "UniProt P22455, sequence (whole entry, looked up)": "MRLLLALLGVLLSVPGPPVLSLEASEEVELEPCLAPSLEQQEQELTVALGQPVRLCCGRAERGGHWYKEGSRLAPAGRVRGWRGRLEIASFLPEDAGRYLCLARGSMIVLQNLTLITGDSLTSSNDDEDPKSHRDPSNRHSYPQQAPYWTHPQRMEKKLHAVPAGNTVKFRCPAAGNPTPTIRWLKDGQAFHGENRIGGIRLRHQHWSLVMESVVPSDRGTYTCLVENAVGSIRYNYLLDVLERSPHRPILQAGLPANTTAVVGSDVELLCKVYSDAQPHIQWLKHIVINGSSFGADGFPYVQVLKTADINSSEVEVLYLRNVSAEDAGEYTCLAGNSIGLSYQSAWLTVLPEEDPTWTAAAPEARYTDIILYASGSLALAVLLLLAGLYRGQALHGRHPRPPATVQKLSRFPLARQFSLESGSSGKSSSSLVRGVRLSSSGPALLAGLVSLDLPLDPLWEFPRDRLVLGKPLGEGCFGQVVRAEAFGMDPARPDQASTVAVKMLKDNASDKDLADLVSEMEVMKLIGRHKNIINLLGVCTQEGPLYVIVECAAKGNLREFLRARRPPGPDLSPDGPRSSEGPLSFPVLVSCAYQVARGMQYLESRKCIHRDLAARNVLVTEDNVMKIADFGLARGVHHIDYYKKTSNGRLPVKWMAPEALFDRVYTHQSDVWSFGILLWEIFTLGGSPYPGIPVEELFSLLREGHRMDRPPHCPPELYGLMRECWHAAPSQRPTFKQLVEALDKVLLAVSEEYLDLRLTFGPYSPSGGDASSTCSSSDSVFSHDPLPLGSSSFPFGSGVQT", "UniProt Q07741, sequence (whole entry, looked up)": "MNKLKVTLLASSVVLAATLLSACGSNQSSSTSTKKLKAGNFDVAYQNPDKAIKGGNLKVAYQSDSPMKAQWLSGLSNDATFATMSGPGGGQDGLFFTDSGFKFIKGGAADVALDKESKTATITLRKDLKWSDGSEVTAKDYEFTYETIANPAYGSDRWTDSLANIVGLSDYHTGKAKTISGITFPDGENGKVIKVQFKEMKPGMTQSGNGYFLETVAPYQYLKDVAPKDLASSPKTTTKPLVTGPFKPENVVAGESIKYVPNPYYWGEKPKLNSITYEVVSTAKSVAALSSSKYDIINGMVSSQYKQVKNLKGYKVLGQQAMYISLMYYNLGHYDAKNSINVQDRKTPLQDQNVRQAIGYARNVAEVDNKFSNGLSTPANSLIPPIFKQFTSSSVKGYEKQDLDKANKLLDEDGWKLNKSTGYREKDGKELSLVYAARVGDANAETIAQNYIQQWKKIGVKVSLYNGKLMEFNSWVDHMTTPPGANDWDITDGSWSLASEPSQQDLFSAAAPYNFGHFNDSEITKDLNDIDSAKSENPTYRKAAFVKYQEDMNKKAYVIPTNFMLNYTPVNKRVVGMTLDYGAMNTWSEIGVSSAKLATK", "UniProt Q9Y294, sequence (whole entry, looked up)": "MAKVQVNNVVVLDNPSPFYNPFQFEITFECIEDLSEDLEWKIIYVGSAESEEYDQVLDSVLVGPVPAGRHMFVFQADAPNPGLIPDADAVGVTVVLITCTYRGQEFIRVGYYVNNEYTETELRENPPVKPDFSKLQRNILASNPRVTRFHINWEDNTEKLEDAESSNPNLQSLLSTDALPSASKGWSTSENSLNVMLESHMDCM", "UniProt Q9UEF7, sequence (whole entry, looked up)": "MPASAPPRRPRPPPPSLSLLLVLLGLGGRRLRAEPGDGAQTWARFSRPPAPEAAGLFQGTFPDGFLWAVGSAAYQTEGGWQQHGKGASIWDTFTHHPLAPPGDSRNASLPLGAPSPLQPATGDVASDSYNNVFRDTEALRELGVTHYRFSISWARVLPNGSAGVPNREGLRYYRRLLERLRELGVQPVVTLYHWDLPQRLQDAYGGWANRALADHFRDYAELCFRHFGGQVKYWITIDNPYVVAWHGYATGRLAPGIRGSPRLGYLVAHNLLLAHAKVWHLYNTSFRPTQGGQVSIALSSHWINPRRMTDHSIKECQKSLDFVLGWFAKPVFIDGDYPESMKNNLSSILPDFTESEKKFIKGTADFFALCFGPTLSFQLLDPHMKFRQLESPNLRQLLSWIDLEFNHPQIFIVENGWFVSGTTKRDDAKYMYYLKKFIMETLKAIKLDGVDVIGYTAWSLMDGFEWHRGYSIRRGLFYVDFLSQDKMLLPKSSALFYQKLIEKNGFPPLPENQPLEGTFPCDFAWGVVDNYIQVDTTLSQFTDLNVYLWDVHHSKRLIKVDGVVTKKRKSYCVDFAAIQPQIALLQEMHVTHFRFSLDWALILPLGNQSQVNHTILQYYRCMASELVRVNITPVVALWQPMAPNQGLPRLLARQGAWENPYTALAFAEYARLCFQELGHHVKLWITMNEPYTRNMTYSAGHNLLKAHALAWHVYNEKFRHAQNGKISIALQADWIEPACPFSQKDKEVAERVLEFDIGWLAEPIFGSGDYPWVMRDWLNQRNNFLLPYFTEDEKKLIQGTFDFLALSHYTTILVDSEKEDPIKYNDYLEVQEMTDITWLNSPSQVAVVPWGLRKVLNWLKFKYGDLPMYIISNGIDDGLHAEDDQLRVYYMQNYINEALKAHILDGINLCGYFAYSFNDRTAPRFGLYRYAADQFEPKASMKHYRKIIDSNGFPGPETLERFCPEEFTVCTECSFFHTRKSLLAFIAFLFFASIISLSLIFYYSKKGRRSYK", "UniProt Q9FIP9, sequence (whole entry, looked up)": "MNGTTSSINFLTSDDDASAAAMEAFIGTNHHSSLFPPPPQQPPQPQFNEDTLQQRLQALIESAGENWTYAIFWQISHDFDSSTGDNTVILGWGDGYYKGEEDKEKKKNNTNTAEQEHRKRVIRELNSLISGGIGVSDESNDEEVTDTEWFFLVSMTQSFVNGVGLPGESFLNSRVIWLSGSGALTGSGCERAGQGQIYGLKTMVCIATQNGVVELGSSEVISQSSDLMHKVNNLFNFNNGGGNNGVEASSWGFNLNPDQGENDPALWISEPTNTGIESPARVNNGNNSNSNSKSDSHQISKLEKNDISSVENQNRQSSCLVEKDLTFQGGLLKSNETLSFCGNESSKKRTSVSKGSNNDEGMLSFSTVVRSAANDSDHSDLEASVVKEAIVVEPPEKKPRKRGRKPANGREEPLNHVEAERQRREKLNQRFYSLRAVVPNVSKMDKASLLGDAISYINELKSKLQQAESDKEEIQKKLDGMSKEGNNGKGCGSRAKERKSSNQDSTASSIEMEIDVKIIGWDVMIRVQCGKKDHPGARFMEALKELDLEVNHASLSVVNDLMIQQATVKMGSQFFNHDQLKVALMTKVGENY", "UniProt Q9Y6Y9, sequence (whole entry, looked up)": "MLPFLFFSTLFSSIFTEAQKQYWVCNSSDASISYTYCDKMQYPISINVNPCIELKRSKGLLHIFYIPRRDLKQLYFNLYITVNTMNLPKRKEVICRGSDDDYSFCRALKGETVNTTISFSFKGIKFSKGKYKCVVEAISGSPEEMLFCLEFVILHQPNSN"}
{"Compound": "CCCCCCCCCCCCCCCC(=O)NCCCC[C@H](NC(=O)[C@H](CCCNC(=N)N)NC(=O)[C@H](Cc1ccc(O)cc1)NC(=O)[C@H](CC(C)C)NC(=O)[C@H](CCCNC(=N)N)NC(=O)CNS(=O)(=O)c1ccc(N)cc1)C(N)=O", "target": "lipopolysaccharide", "assay": "binding, fluorescence quenching", "Kd": "~0.000793 µM"}
{"Compound": "N[C@@H](CO)C(=O)N[C@@H](Cc1ccccc1)C(=O)N[C@@H](CO)C(=O)N[C@@H](CCC(=O)O)C(=O)O", "target": "Lymphocyte antigen 96 (LY96, Homo sapiens, UniProt Q9Y6Y9)", "assay": "binding, SPR", "Kd": "> 0.1 µM"}
{"Compound": "CC[C@H](C)[C@H](NC(=O)[C@H](Cc1ccc(O)cc1)NC(=O)[C@H](CCCNC(=N)N)NC(=O)[C@H](Cc1ccc(O)cc1)NC(=O)[C@H](CCSC)NC(C)=O)C(=O)N[C@H]1CSCc2cccc(c2)CSC[C@@H](C(=O)N[C@@H](CC(C)C)C(=O)N[C@@H](C)C(=O)N[C@@H](CO)C(=O)N[C@@H](Cc2ccc(O)cc2)C(=O)NCC(=O)N[C@@H](CO)C(=O)NCC(=O)N[C@@H](CO)C(=O)NCC(=O)N[C@@H](CO)C(=O)N[C@@H](CC(=O)O)C(=O)N[C@@H](Cc2ccc(O)cc2)C(=O)N[C@@H](CCCCN)C(=O)N[C@@H](CC(=O)O)C(=O)N[C@@H](CC(=O)O)C(=O)N[C@@H](CC(=O)O)C(=O)N[C@@H](CC(=O)O)C(=O)N[C@@H](CCCCN)C(N)=O)NC(=O)[C@H](CC(N)=O)NC(=O)[C@H](CO)NC(=O)[C@H](CC(C)C)NC(=O)[C@H]([C@@H](C)O)NC1=O", "target": "Fibroblast growth factor receptor 4 (FGFR4, Homo sapiens, UniProt P22455)", "assay": "binding, BLI", "Kd": "> 10 µM"}
{"Compound": "CC[C@H](C)[C@H](NC(=O)[C@H](CCCNC(=N)N)NC(=O)[C@H](CCCCN)NC(=O)[C@@H](NC(=O)[C@H](C)NC(=O)[C@H](CCCNC(=N)N)NC(=O)[C@H](CCC(N)=O)NC(=O)[C@H](CO)NC(=O)[C@H](CCCCN)NC(=O)[C@H](CC(N)=O)NC(=O)[C@@H](N)CCCNC(=N)N)[C@@H](C)O)C(=O)N[C@@H](COP(=O)(O)O)C(=O)N[C@@H](Cc1c[nH]cn1)C(=O)N[C@@H](CCSC)C(=O)N1CCC[C@H]1C(=O)N[C@@H](CO)C(=O)N[C@@H](CCCNC(=N)N)C(=O)N1CCC[C@H]1C(=O)N[C@@H](CCC(=O)O)C(=O)N[C@@H](CC(C)C)C(=O)N[C@@H](CO)C(=O)N[C@@H](C)C(=O)N[C@H](C(=O)N[C@@H](C)C(=O)N[C@H](C(=O)N[C@@H](CC(=O)O)C(=O)N[C@@H](CC(C)C)C(=O)N[C@@H](CCCNC(=N)N)C(=O)N[C@@H](CCCCN)C(=O)N[C@@H](CC(=O)O)C(=O)N[C@@H](CCCCN)C(=O)N[C@@H](C)C(=O)N[C@@H](CCCCN)C(=O)N[C@@H](COP(=O)(O)O)C(=O)N[C@@H](CS)C(=O)OC)[C@@H](C)O)C(C)C", "target": "14-3-3 protein zeta/delta (YWHAZ, Homo sapiens, UniProt P63104)", "assay": "binding, stopped-flow fluorescence polarization", "Kd": "0.23 µM"}
{"Compound": "COc1ccc2c(c1)c(C(=O)O)c(C)n2CCc1ccc(OC)c(OC)c1", "target": "E3 ubiquitin-protein ligase CBL-C (Homo sapiens, UniProt Q9ULV8)", "assay": "binding, NMR", "Kd": "1100 µM"}
{"Compound": "CSCC[C@H](NC(=O)[C@@H]1CCCN1C(=O)CCOCCOCCOCCOCCNC(=O)CCCC[C@@H]1SC[C@@H]2NC(=O)N[C@@H]21)C(=O)N[C@@H](C)C(=O)N[C@@H](CO)C(=O)N[C@@H](CC(=O)O)C(=O)N1CCC[C@H]1C(=O)N[C@@H](CC(C)C)C(=O)NCC(=O)N[C@H](C(=O)N[C@H](C(=O)N[C@@H](CCCNC(=N)N)C(=O)N1CCC[C@H]1C(=O)N[C@@H](CCCNC(=N)N)C(=O)N[C@@H](C)C(=O)N[C@@H](CCCNC(=N)N)C(=O)N[C@@H](C)C(N)=O)C(C)C)C(C)C", "target": "Klotho (Homo sapiens, UniProt Q9UEF7)", "assay": "binding, BLI", "Kd": "3 µM"}
{"Compound": "CC[C@H](C)[C@H](NC(=O)[C@@H](NC(=O)[C@H](Cc1c[nH]c2ccccc12)NC(=O)[C@H](CCC(=O)O)NC(=O)[C@H](CO)NC(=S)Nc1ccc2c(c1)C(=O)OC21c2ccc(O)cc2Oc2cc(O)ccc21)C(C)C)C(=O)N[C@H](C(=O)N[C@H](C(=O)N1CCC[C@H]1C(=O)N[C@@H](C)C(=O)N[C@@H](CC(C)C)C(=O)N[C@H](C(=O)N[C@@H](CC(N)=O)C(=O)N[C@@H](CC(C)C)C(=O)O)[C@@H](C)O)[C@@H](C)CC)C(C)C", "target": "Rgg transcriptional regulator (Streptococcus pneumoniae, UniProt A0A0E7KI02)", "assay": "binder, fluorescence polarization", "conditions": "20 min, pH 7.4, 20 °C, fluorescein-labelled peptide", "Kd": "7.1 ± 0.4 µM"}
{"Compound": "CC(=O)NC1C(O)OC(CO)C(OC2OC(CO)C(OC3OC(CO)C(O)C(O)C3O)C(O)C2O)C1O (centres unmarked)", "target": "sly (Streptococcus suis, UniProt Q55996)", "assay": "binding", "Kd": "0.359 µM"}
{"Compound": "CC[C@H](C)[C@H](NC(=O)[C@H](Cc1c[nH]cn1)NC(=O)[C@H](CCCCNC(=O)[C@@H](NC(=O)[C@H](CCCCN)NC(=O)CSC[C@H](NC(=O)[C@H](Cc1ccccc1)NC(=O)[C@H](CCCCNC(=O)[C@H](CC(C)C)NC(=O)[C@@H]1CCCN1C(=O)[C@H](CCCCN)NC(=O)C[C@@H]1O[C@@H](C)[C@@H](O)[C@@H](O)[C@@H]1O)NC(=O)[C@H](CC(C)C)NC(=O)[C@@H]1CCCN1C(=O)[C@H](CCCCN)NC(=O)CCS[C@@H]1O[C@H](CO)[C@H](O)[C@H](O)[C@H]1O)C(N)=O)[C@@H](C)CC)NC(=O)[C@@H](NC(=O)[C@H](CCCCN)NC(=O)CSC[C@H](NC(=O)[C@H](Cc1ccccc1)NC(=O)[C@H](CCCCNC(=O)[C@H](CC(C)C)NC(=O)[C@@H]1CCCN1C(=O)[C@H](CCCCN)NC(=O)C[C@@H]1O[C@@H](C)[C@@H](O)[C@@H](O)[C@@H]1O)NC(=O)[C@H](CC(C)C)NC(=O)[C@@H]1CCCN1C(=O)[C@H](CCCCN)NC(=O)CCS[C@@H]1O[C@H](CO)[C@H](O)[C@H](O)[C@H]1O)C(N)=O)[C@@H](C)CC)C(N)=O", "target": "lecA", "assay": "binding, ITC", "conditions": "pH 7.5", "Kd": "0.12 µM"}
{"Compound": "CC(C)=CCC/C(C)=C/CC/C(C)=C/C(=O)O", "target": "Juvenile hormone acid O-methyltransferase (JHAMT, Bombyx mori, UniProt Q767F1, Q14E)", "assay": "binding, fluorescence binding", "conditions": "pH 8.0, 25 °C", "Kd": "0.19 ± 0.04 µM"}
{"Compound": "CC(C)C[C@H](NC(=O)[C@@H]1CCCN1C(=O)[C@H](CC(=O)O)NC(=O)[C@H](CO)NC(=O)[C@H](C)NC(=O)CC1c2ccccc2-c2ccccc21)C(=O)NCC(=O)N[C@H](C(=O)N[C@H](C(=O)N[C@@H](CCCNC(=N)N)C(=O)NCC(=O)N[C@@H](CCCNC(=N)N)C(=O)N[C@@H](C)C(=O)N[C@@H](CCCNC(=N)N)C(N)=O)C(C)C)C(C)C", "target": "Klotho (Kl, Mus musculus, UniProt O35082)", "assay": "BLI competition binding", "conditions": "30 min, 30 °C, together with: 100 nM mouse Klotho, immobilized Pep-10-Biotin", "Kd": "0.009 ± 0.005 µM"}
{"Compound": "C[C@@H](O)[C@H](NC(=O)[C@@H]1CCCN1C(=O)[C@H](COP(=O)(O)O)NC(=O)[C@H](Cc1ccc(O)cc1)NC(=O)[C@H](CO)NC(=O)[C@@H]1CCCN1C(=O)[C@H](COP(=O)(O)O)NC(=O)[C@@H](NC(=O)[C@@H]1CCCN1C(=O)[C@H](COP(=O)(O)O)NC(=O)[C@H](Cc1ccc(O)cc1)NC(=O)[C@H](CO)NC(=O)[C@@H]1CCCN1C(=O)[C@@H](N)CO)[C@@H](C)O)C(=O)N[C@@H](COP(=O)(O)O)C(=O)N1CCC[C@H]1C(=O)N[C@@H](CO)C(=O)N[C@@H](Cc1ccc(O)cc1)C(=O)N[C@@H](CO)C(=O)O", "target": "RPRD1B CID domain", "assay": "isothermal titration calorimetry", "conditions": "pH 7.5, 25 °C", "Kd": "> 1000 µM"}
{"Compound": "CC(C)C[C@H](NC(=O)[C@H](CCCNC(=N)N)NC(=O)[C@H](CCC(=O)O)NC(=O)[C@H](CCCCN)NC(=O)[C@H](CCCNC(=N)N)NC(=O)[C@H](CCCCN)NC(=O)[C@H](CCC(=O)O)NC(=O)[C@H](CC(C)C)NC(=O)[C@H](Cc1ccccc1)NC(=O)[C@H](CCCNC(=N)N)NC(=O)[C@H](C)NC(=O)[C@H](CC(C)C)NC(=O)[C@H](CO)NC(=O)[C@]1(C)CCCC=CCCC[C@](C)(NC(=O)[C@@H]2CCCN2C(=O)[C@@H](NC(=O)[C@H](CO)NC(=O)c2ccc3c(c2)C(=O)OC32c3ccc(N(C)C)cc3Oc3cc(N(C)C)ccc32)C(C)C)C(=O)N[C@@H](C)C(=O)N[C@@H](CCCNC(=N)N)C(=O)N[C@@H](CCCCN)C(=O)N1)C(=O)O", "target": "Transcription factor MYC3 (MYC3, Arabidopsis thaliana, UniProt Q9FIP9)", "assay": "binding, fluorescence anisotropy", "conditions": "pH 8.0, apparent Kd, together with: 100 nM TMR-labelled JAZ peptide", "Kd": "2.4 ± 0.5 µM"}
{"Compound": "CC[C@H](C)[C@H](NC(=O)[C@H](CCCNC(=N)N)NC(=O)[C@H](CCCNC(=N)N)NC(=O)[C@H](C)NC(=O)[C@H](CC(C)C)NC(=O)[C@H](CCCNC(=N)N)NC(=O)[C@H](C)NC(=O)[C@H](Cc1ccc2ccccc2c1)NC(=O)[C@H](CCCCN)NC(=O)[C@H](CCC(=O)O)NC(C)=O)C(=O)N[C@@H](C)C(N)=O", "target": "Histone chaperone ASF1A (Homo sapiens, UniProt Q9Y294)", "assay": "binding, ITC", "conditions": "pH 7.5", "Kd": "0.2 µM"}
{"Compound": "N=C(N)NCCC[C@H](NC(=O)[C@H](Cc1ccccc1)NC(=O)[C@@H]1CCCN1C(=O)[C@H](CO)NC(=O)[C@H](Cc1ccccc1)NC(=O)CNC(=O)[C@@H]1CCCN1C(=O)[C@@H]1CCCN1C(=O)[C@@H](N)CCCNC(=N)N)C(=O)N[C@@H](CCCCNS(=O)(=O)c1ccc(C2=c3cc4c5c(c3Oc3c2cc2c6c3CCCN6CCC2)CCC[N+]=5CCC4)c(S(=O)(=O)[O-])c1)C(=O)O", "target": "Oligopeptide-binding protein OppA (oppA, Lactococcus lactis subsp. lactis, UniProt Q07741)", "assay": "binding, fluorescence anisotropy", "conditions": "pH 8, 30 °C, together with: dye-labelled peptide", "Kd": "22 ± 1 µM"}
{"Compound": "C[C@@H](O)[C@H](NC(=O)[C@@H]1CCCN1C(=O)[C@H](COP(=O)(O)O)NC(=O)[C@H](Cc1ccc(O)cc1)NC(=O)[C@H](CO)NC(=O)[C@@H]1CCCN1C(=O)[C@H](CO)NC(=O)[C@@H](NC(=O)[C@@H]1CCCN1C(=O)[C@H](CO)NC(=O)[C@H](Cc1ccc(O)cc1)NC(=O)[C@H](CO)NC(=O)[C@@H]1CCCN1)[C@@H](C)O)C(=O)N[C@@H](CO)C(=O)N1CCC[C@H]1C(=O)N[C@@H](CO)C(=O)O", "target": "RPRD1B CID domain", "assay": "binding, fluorescence polarization", "conditions": "pH 8.0, room temperature", "Kd": "22.5 ± 3 µM"}
{"Compound": "CC(C)C[C@H](NC(=O)[C@@H]1CCCN1C(=O)[C@H](CCCCN)NC(=O)CCS[C@@H]1O[C@H](CO)[C@H](O)[C@H](O)[C@H]1O)C(N)=O", "target": "lecA", "assay": "isothermal titration calorimetry", "conditions": "pH 7.5, 25 °C, together with: 25 mM CaCl2", "Kd": "51.5 ± 6.7 µM"}
{"note": "Some of these lines once more:"}
{"Compound": "CC[C@H](C)[C@H](NC(=O)[C@H](Cc1ccc(O)cc1)NC(=O)[C@H](CCCNC(=N)N)NC(=O)[C@H](Cc1ccc(O)cc1)NC(=O)[C@H](CCSC)NC(C)=O)C(=O)N[C@H]1CSCc2cccc(c2)CSC[C@@H](C(=O)N[C@@H](CC(C)C)C(=O)N[C@@H](C)C(=O)N[C@@H](CO)C(=O)N[C@@H](Cc2ccc(O)cc2)C(=O)NCC(=O)N[C@@H](CO)C(=O)NCC(=O)N[C@@H](CO)C(=O)NCC(=O)N[C@@H](CO)C(=O)N[C@@H](CC(=O)O)C(=O)N[C@@H](Cc2ccc(O)cc2)C(=O)N[C@@H](CCCCN)C(=O)N[C@@H](CC(=O)O)C(=O)N[C@@H](CC(=O)O)C(=O)N[C@@H](CC(=O)O)C(=O)N[C@@H](CC(=O)O)C(=O)N[C@@H](CCCCN)C(N)=O)NC(=O)[C@H](CC(N)=O)NC(=O)[C@H](CO)NC(=O)[C@H](CC(C)C)NC(=O)[C@H]([C@@H](C)O)NC1=O", "target": "Fibroblast growth factor receptor 4 (FGFR4, Homo sapiens, UniProt P22455)", "assay": "binding, BLI", "Kd": "> 10 µM"}
